Results gathered from unrelated publications.
Protocols differ between the studies behind these lines. Values joined by “and” are separate records of one study, mostly repeats; a detail may differ. ± gives the spread as reported.
Aryl hydrocarbon receptor: Aryl hydrocarbon receptor (Danio rerio, UniProt Q9YGV3)

CC[C@@H]1[C@H](F)C(=O)N[C@@H]1COc1nccc2cc(C(N)=O)c(OC)cc12 — inhibition (ATM (Homo sapiens, UniProt Q13315); ATP-site probe binding, ActivX profiling; THP-1 cell lysate; 0.2 mM): -2.2%
Cn1c2c(c3ccc(Cl)c(Cl)c31)C(C#N)C1(CCCC1)NC2=O (stereo not drawn) — delta Tm (Serine/threonine-protein kinase VRK3 (VRK3, Homo sapiens, UniProt Q8IV63); thermal stability, thermal shift; 10 µM; higher = stronger binding): 0 °C
Nc1ccc2ccc3cccc4ccc1c2c34 — fold change (Aryl hydrocarbon receptor; reporter gene, agonist, luciferase reporter; ZF-4; 10000 µM; relative to: vehicle control): 1.35
O=c1nc(SCc2cc(F)cc(C(F)(F)F)c2)nc(SCc2ccc3sccc3c2)[nH]1 — ATP hydrolysis rate (TOP2A (Homo sapiens, UniProt P11388); ATPase activity; 1.95 µM, with: ATP 2 mM): 2.3 µM/min
NCCS(=O)(=O)O — normalised MST signal (SLC6A6 (Homo sapiens, UniProt P31641, Y138A); binding, microscale thermophoresis; 31.3 µM, room temperature, with: 50 nM labelled protein; higher = more binding): -0.0448
O=C(NO)c1ccc(CN2CCCCc3ccccc32)c(F)c1 — inhibition (CHRM1 (Homo sapiens, UniProt P11229); radioligand binding, radioligand displacement; 10 µM): 13.7%
CN(C)c1nccc(-c2cnn3ncccc23)n1 — remaining binding (ABL1 (Homo sapiens, UniProt P00519, T315I); KINOMEscan; 1 µM; relative to: control): 63%
c1ccc2c(c1)-c1cccc3c1c-2cc1ccccc13 — fold change (Aryl hydrocarbon receptor; reporter gene, agonist, luciferase reporter; ZF-4; 41.15 µM; relative to: vehicle control): 6.68
Nc1ccc(C(=O)O)cc1 — current density (BEST1, with wild-type BEST1 (Homo sapiens, UniProt O76090, A243T); whole-cell patch clamp; HEK293 co-expressing WT and A243T mutant; concentration not given, membrane potential 20 mV): 5.51 pA/pF and 4.39 pA/pF and 6.8 pA/pF and 5.21 pA/pF and 2.32 pA/pF and 5.73 pA/pF and 1.76 pA/pF
CC[C@H](C)[C@H](NC(=O)[C@H](CCCNC(=N)N)NC(=O)[C@H](Cc1c[nH]cn1)NC(=O)[C@H](CCCNC(=N)N)NC(=O)[C@H](CC(=O)O)NC(=O)[C@@H](N)CC(=O)O)C(=O)N[C@@H](CCC(=O)O)C(=O)N[C@@H](CCC(=O)O)C(=O)N[C@@H](CCCCN)C(=O)N[C@@H](CCCNC(=N)N)C(=O)N[C@@H](CCCCN)C(=O)N[C@@H](CCCNC(=N)N)C(=O)N[C@H](C(=O)N[C@@H](Cc1ccc(O)cc1)C(=O)N[C@@H](CCC(=O)O)C(=O)N[C@H](C(=O)N[C@@H](Cc1ccccc1)C(=O)N[C@@H](CCCCN)C(=O)N[C@@H](CO)C(=O)N[C@H](C(=O)N[C@@H](CCSC)C(=O)N[C@@H](CCCCN)C(=O)N[C@@H](CCCCN)C(=O)N[C@@H](CO)C(=O)N1CCC[C@H]1C(=O)N[C@@H](Cc1ccccc1)C(=O)N[C@@H](CC(N)=O)C(=O)NCC(=O)N1CCC[C@H]1C(=O)O)[C@@H](C)CC)[C@@H](C)O)[C@@H](C)O — ΔH (NF-kappa-B inhibitor alpha (Homo sapiens, UniProt P25963); binding, ITC; pH 7.5, 293 K, 50 mM NaCl): -4.2 ± 0.2 kcal/mol
Cc1cccc2c1ccc1ccccc12 — maximum response (AHR (Homo sapiens, UniProt P35869); reporter gene, agonist, yeast LacZ reporter; Saccharomyces cerevisiae): 120 LacZ units
O=C(COP(=O)(O)O)[C@@H](O)[C@H](O)[C@H](O)COP(=O)(O)O — thermal stability ratio (Nucleolar protein 56 (Homo sapiens, UniProt O00567); thermal proteome profiling, item: NOP56; HepG2 cell lysate; concentration not given, 57 over 37 °C; relative to: compound over control): 0.472 and 0.541 and 0.652
O=C(O)C1=CCNCC1 — maximal response (GABA-A receptor; alpha-1/beta-2/gamma-2 (Rattus norvegicus, UniProt P18508+P62813+P63138); chloride current, agonist, whole-cell patch clamp; HEK293 expressing GABAA; 30 s; relative to: maximum): 110%
O=C(O)c1ccc(Nc2ncc3c(n2)-c2ccc(Cl)cc2C(c2c(F)cccc2F)=NC3)cc1 — remaining activity (Rsk3(h); kinase activity; 1 µM): 76%
CCCCCCCCCCCCC/C=C/[C@@H](O)[C@H](CO)NC(=O)CCCCCCCCCCCCCCC — lipid fraction bound (Protein SET (SET, Homo sapiens, UniProt Q01105, Y135C); lipid binding, GFP pull-down LC-MS/MS; A549 overexpressing GFP-tagged protein; relative to: eluate plus flow-through): 5.5%

A few entries again:
CC[C@@H]1[C@H](F)C(=O)N[C@@H]1COc1nccc2cc(C(N)=O)c(OC)cc12 — inhibition (ATM (Homo sapiens, UniProt Q13315); ATP-site probe binding, ActivX profiling; THP-1 cell lysate; 0.2 mM): -2.2%
Cn1c2c(c3ccc(Cl)c(Cl)c31)C(C#N)C1(CCCC1)NC2=O (stereo not drawn) — delta Tm (Serine/threonine-protein kinase VRK3 (VRK3, Homo sapiens, UniProt Q8IV63); thermal stability, thermal shift; 10 µM; higher = stronger binding): 0 °C
